Measured values of several laboratories.
A part holds a random share of what one study measured. Positions count from the first letter of the parent shown.

Sample 1
Target: ABI1, truncated, D143A, DHFR fusion (Arabidopsis thaliana)
Method: DHFR PCA, deep sequencing
Matrix: yeast
Notes: methotrexate growth selection, single substitutions
Together with: (+)-ABA 0.0091 µM
Baseline: wild-type fitted maximum
Direction: higher = stronger binding
Starting sequence: PYL1, truncated, DHFR fusion (Arabidopsis thaliana); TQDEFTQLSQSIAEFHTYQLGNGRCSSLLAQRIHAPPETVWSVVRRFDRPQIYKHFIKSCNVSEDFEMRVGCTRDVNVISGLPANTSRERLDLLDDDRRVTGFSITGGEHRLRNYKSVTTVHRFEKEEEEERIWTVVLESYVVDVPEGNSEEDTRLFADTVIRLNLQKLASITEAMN
Change	relative binding score
L169E	-2.35%
Q2P	71.1%
S26A	27.2%
V143D	-2.54%
Y141E	2.25%
V43Q	-3.59%
L112S	-2.17%
W41E	-6.59%
E4F	11.3%
E109V	-1.65%
T86V	52.2%
D153R	-4.36%
F15K	-3.4%

Sample 2
Target: Histone acetyltransferase KAT6A, winged helix 1, GST fusion (KAT6A, Homo sapiens, UniProt Q92794, residues 1-85)
Method: protein binding microarray
Molecule type: double-stranded DNA, one strand shown
Matrix: in vitro
Concentration: not given
Notes: 8-mer, flanks averaged, mean of 2 arrays, mostly near background
Baseline: not given
Direction: higher = stronger binding
Construct (chain): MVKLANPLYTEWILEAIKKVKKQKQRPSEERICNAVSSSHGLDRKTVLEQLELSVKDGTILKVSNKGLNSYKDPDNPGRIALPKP
Oligonucleotide	E-score
AACTTTAG	-0.0591
CCGCGCCG	0.452
GACACCAA	-0.134
ATATCGAC	-0.0867
ACGGATAC	0.218
AATTTCAG	-0.0533
CTAATTTC	-0.0173
CCGCCCTA	0.223
CGTAAGAA	0.0114
AACGAGGG	-0.201
CGGTGTCC	0.331
CGCACCTA	0.00921
GGAGTGAC	0.0262

Sample 3
Target: CCNF, cyclin fold, Cln2 fusion (human)
Method: yeast growth competition, sequencing
Matrix: yeast
Notes: strong parent motif
Baseline: not given
Direction: higher = stronger binding
Starting sequence: CDKN1A docking peptide (human); SKACRRLFGPVDS
Change	normalised enrichment score
SKACPRLFGPVDS [R5P]	-0.164
SKACRTLFGPVDS [R6T]	5.35
SSACRRLFGPVDS [K2S]	7.74
SKACRRMFGPVDS [L7M]	0.674
SKAYRRLFGPVDS [C4Y]	3.04
SKACRRNFGPVDS [L7N]	0.108
SKACRREFGPVDS [L7E]	-0.131
SKAGRRLFGPVDS [C4G]	2.84
SKACVRLFGPVDS [R5V]	0.958
SKACRRLFGGVDS [P10G]	7.08
SKACGRLFGPVDS [R5G]	0.0348

Other studies, line by line
Substance	target	test	system	setting	how to read	quantity	value
PhoQ, residues 284 288 289 292 302 303 TASMAF	PhoP, residues 12 14 15 18 19 LHHSG (Escherichia coli, UniProt P23836)	Sort-seq, refers to: YFP reporter	E. coli	PhoQ-PhoP variant library, together with: 10 µM Mg2+	baseline: high Mg2+ state, higher = stronger signaling	fold induction	24.6

Excerpt of the above (sample 2):
Oligonucleotide	E-score
CCGCCCTA	0.223
CGTAAGAA	0.0114
